Measurements pooled from the literature.
Protocols differ between the studies behind these lines.
Target: Beta-2 adrenergic receptor (ADRB2, Homo sapiens, UniProt P07550)
Sequence of UniProt P07550 (whole entry, looked up): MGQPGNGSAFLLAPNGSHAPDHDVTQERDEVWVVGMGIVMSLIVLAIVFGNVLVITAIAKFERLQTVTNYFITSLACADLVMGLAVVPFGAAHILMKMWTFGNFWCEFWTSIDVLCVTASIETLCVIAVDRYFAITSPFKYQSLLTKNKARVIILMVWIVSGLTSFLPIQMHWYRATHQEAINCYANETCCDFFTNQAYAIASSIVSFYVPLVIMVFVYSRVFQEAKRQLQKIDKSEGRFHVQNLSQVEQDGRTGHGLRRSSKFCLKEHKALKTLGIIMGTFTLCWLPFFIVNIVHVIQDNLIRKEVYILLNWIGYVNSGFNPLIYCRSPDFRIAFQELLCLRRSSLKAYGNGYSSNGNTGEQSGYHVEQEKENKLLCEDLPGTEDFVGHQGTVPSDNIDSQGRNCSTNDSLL

COc1ccc(F)cc1S(=O)(=O)Nc1cnc2c(c1)C(=O)NCCO2
inhibition (ligand displacement, radioligand; 10 µM): 4%

N[C@H](C(=O)N1CCCC1)C1CCN(c2nccc3c(-c4ncc(Cl)cc4Cl)cccc23)CC1
response (functional response, agonist; 10 µM): 1%

Cl.Fc1ccc(Nc2nc(NC3CCNCC3)c3cc(Cl)ccc3n2)cc1F
bias factor (β-arrestin2 recruitment, PathHunter and GloSensor; reference: GloSensor IC50 over PathHunter IC50): 4 fold

Cc1sc2c(c1C)C(c1ccc(Cl)cc1)=NC(CC(=O)OC(C)(C)C)c1nnc(C)n1-2 (centres unmarked)
inhibition (ligand displacement, radioligand; 1 µM): 4%

CS(C)(=O)=Nc1ccc(-c2ccc(-c3nc4cc(O[C@@H]5CO[C@H]6[C@@H]5OC[C@H]6O)[nH]c4cc3F)cc2)cc1
inhibition (calcium signal, antagonist; 10 µM): -5%

CCc1nnc(-c2c(OC)cc(-c3cnc4cc(-c5cnn(C)c5)ccn34)cc2OC)o1
inhibition (specific binding, antagonist, radioligand binding; 10 µM; reference: control specific binding): 0%

Cc1cc(-c2ccc3ccccc3c2)nnc1NCCN1CCN(C)CC1
activity (antagonist; 10000 nM; reference: control): 0%

C[C@H](NCc1ccc(-c2ccc(C(F)(F)F)cc2)cc1)C(N)=O
inhibition (radioligand binding, SafetyScreen panel; 1 µM, species human, together with: 0.20 nM [3H]CGP-12177): 0%

CN[C@@H]1[C@H](O)[C@H](NC)[C@H]2O[C@]3(O)[C@H](O[C@@H]2[C@H]1O)O[C@H](C)C[C@H]3NC(=O)Cc1cc(Cl)ccn1
inhibition (ligand displacement, radioligand; 10 µM): 4%

C/C(=N\OCCCN1CCCCC1)c1ccc(C(F)(F)F)cc1
activation (agonist, cAMP; 10 µM): 5.13%

Cc1cc(Nc2nc(C[C@@]3(C(=O)O)CCN(Cc4cccc(Cl)c4F)[C@H](C)C3)cc(C)c2F)[nH]n1
activation (agonist; 10 µM): 0.02%

Repeated from above:
Cc1cc(Nc2nc(C[C@@]3(C(=O)O)CCN(Cc4cccc(Cl)c4F)[C@H](C)C3)cc(C)c2F)[nH]n1
activation (agonist; 10 µM): 0.02%
